Measurements collected from several papers.
A part holds a random share of what one study measured. Positions count from the first letter of the parent shown.

Sample 1 — technique: RNA Bind-n-Seq; form: RNA; matrix: in vitro; tested at: 365 nM; reference: no-protein control; direction: higher = stronger binding
Target: RNA binding protein fox-1 homolog 2, RRM domain, GST-SBP tag (RBFOX2, Homo sapiens, UniProt O43251-10, residues 100-194)
Setting: natural RNA segment, single round, ends assumed
Constant ends, left off below: GGGAGUUCUACAGUCCGACGAUC … UGGAAUUCUCGGGUGCCAA
Construct (chain): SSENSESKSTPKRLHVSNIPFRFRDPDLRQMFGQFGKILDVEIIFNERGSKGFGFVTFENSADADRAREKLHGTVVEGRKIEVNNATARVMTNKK
| Strand | RBNS enrichment (R) |
| --- | --- |
| GGACUGCAAAUGCCAGGCUUUCCUUGGCCAUGUAUCUAAAAUCCCAUAAACUCCUCCCUUUGGGAGGCUGGCAAAAAAGGGGCUGUGCUCUCCCUGGUUAAGCAGUUUGU | 0.773 |
| CUUGCCCUGAAAUCUCAAUGUCUAUUCAGUGAUAGUACAAGCACGUAGAUACCACUUAGUAUACUAUUGUUUCUAUUAAAAAAAAAAAAAAAAAGGUCUGUUCCUGCUAC | 0.918 |
| GCCUCCUCCAUCUUUCAUGUGGUACCCAGGUAAAUGUGGACAUAGUGUGAAGGGACCUGUGGCCACCAGAGGAUGCUCUGGGCCUACUGAGGACAGGCCACUUGUGCUCA | 0.616 |
| UAUGCUUUGCCUUAUUUCCACAUUUAAACUACCUGUUAAUAUAAGGGAUUUGUAGUAUCAGCUUGUUGAGCAAUGACUUUGAAUCUAGUUUUCAGUGAUCAGAAGCAGCA | 0.387 |
| AGAUGUUCUAGGAUAGUUGAUGCAUGUUACUAAAUUACGUAUGCAAGUCUGUGAGUGCGUCUGAGGGGACAUCGCCAAGGACUGACUGAGACACGAUGCCGAGACCUCAA | 11.2 |
| GUAACUAAUUUUUAUAUAGUUAAUGUAGGAUAAAGUAGAGUGCAUUAAGACACAAUAUUGUAAUCCCUACUCUAGGCACUUGCCUUUAAACUAUGUUUUUCAGCCCUUCA | 0.422 |
| AUAAAGGGUUUCCCAAGGGUAGACACCUUGACCAUCCUGAAGUAUGGGUGCUGUACCUGUUCCAGAAGCGAGGACCCAGGUGACAGCCUCACCUUUGCAAAGUUAUAGAG | 0.314 |
| UAGACUCAAGGGUGUGUGGUAUUUCGCUUUUUAGUACAUUACUUUACUGGAAGCUUAAAAUUUGCUUCUCAGUUGGCCUUUAGAGCAAGAGUGGAAUAGCUGUUUUAUUC | 0.354 |
| AUAGAUGUGUUUGCAAUUUGAAGAUAUCUUUCUGUCCAGAAGGCAAAAUUACCGAAUGCCAUUUUUAAAAGUAUGCUAUAAACUAUGCUACUCUCAUACAGGGGACCCGU | 0.42 |
| UAGGUGGGUGGUGUGCAUAGGCCACGUGUGCCCCACAUAUGCAGGGGGUGCCCCACACAGCUAGAGCGGCCAGGAGAGCGCCUCCUAACCACCAGCCGUUCCUGAUCUCA | 0.315 |
| UGGACAGUGUUCUAUUAACUCAUUGAAUGUGUUUCCUUUGUCUUGUGUUAAUAAAUAUUGAUGCUUGAUUAUGUUUAAUUCUUAAACCUUGGGUGGAGCUGGGUGGUGUU | 0.993 |
| CCCACUGCUGCUGCCUUUCAUUUAUAAUAAUAGCCCUUCCAUCUGGCAGCAGGAAGAGCGCACUCUCGACAUUCUUGUCUCUGCUUUAGAAUGCUGCUGUGUCUGUCAUG | 0.912 |

Sample 2 — target: CCND2, cyclin fold, Cln2 fusion (human); technique: yeast growth competition, sequencing; matrix: yeast; setting: weak parent motif; reference: not given; direction: higher = stronger binding
Starting sequence: CDC6 docking peptide (human); TLKGRRLVFDNQL
| Change | normalised enrichment score |
| --- | --- |
| G4R | 0.423 |
| L13S | 0.466 |
| G4N | 0.389 |
| L13K | 0.0447 |
| R5H | 0.0885 |
| L7W | 0.336 |
| L2T | 0.0284 |
| N11E | 0.18 |
| V8G | 0.0351 |
| N11L | 0.186 |
| T1P | 0.125 |
| L7N | 0.0363 |
| K3L | 0.478 |
| V8E | 0.496 |
| F9I | 0.306 |
| L7Y | 0.629 |
| L13W | 0.621 |
| R6A | 0.347 |
| G4S | -0.398 |
| K3N | 0.0997 |
| K3Y | 0.438 |

Sample 3 — target: UBE2Q1 UBC core domain (UniProt Q7Z7E8); technique: yeast two-hybrid; matrix: yeast; setting: mostly zero background; reference: not given; direction: higher = stronger interaction
B1: RNF175 RING domain (UniProt Q8N4F7); chain LPTRSLSDNICAVCGQKIIVELDEEGLIENTYQLSCNHVFHEFCIRGWCIVGKKQTCPYCKEKVDLKRMIS
B2: TRIM52 RING domain (UniProt Q96A61); chain PMQTLQEEAVCAICLDYFKDPVSISCGHNFCRGCVTQLWSKEDEEDQNEEEDEWEEEEDEEAV
B3: RNF43 RING domain (UniProt Q68DV7); chain SGSSCSSAPVCAICLEEFSEGQELRVISCLHEFHRNCVDPWLHQHRTCPLCMFNITEGDSFS
B4: UBE4A RING domain (UniProt Q14139); chain LQQQEEETYADACDEFLDPIMSTLMCDPVVLPSSRVTVDRSTIARHLLSDQTDPFNRSPLTMDQIRPNTELKEKIQRWLAERKQQKEQLE
B5: PHF7 RING domain (UniProt Q9BWX1); chain IQHGHVGEESCILCCEDLSQQSVENIQSPCCSQAIYHRKCIQKYAHTSAKHFFKCPQCNNRKEFPQEML
B6: NSMCE1 RING domain (UniProt Q8WV22); chain RETYPDAVKICNICHSLLIQGQSCETCGIRMHLPCVAKYFQSNAEPRCPHCNDYWPHEIPKV
B7: RNF14 RING domain (UniProt Q9UBS8); chain IKCFNSKLFLCSICFCEKLGSECMYFLECRHVYCKACLKDYFEIQIRDGQVQCLNCPEPKCPSVATPGQVK
B8: RNF149 RING domain (UniProt Q8NC42); chain EKGIDVDAENCAVCIENFKVKDIIRILPCKHIFHRICIDPWLLDHRTCPMCKLDVIKALGYW
Construct (chain): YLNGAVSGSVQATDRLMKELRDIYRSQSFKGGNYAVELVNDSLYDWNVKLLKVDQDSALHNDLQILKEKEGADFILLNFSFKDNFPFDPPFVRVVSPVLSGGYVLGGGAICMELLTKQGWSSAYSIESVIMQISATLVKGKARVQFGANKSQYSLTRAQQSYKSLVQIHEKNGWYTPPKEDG
| Molecule | lacZ reporter activity |
| --- | --- |
| FLKKLEQSFMCVCCQELVYQPVTTECFHNVCKDCLQRSFKAQVFSCPACRHDLGQNYIMI (UHRF2 RING domain (UniProt Q96PU4)) | 0 |
| B1 (RNF175 RING domain) | 0 |
| B2 (TRIM52 RING domain) | 0 |
| QLQDEEDDSLCRICMDAVIDCVLLECGHMVTCTKCGKRMSECPICRQYVVRAVHVF (RNF34 RING domain (UniProt Q969K3)) | 0 |
| B3 (RNF43 RING domain) | 0 |
| B4 (UBE4A RING domain) | 0 |
| LKQVSIRENCCSLCCDEVADTQLKPCGHSDLCMDCALQLETCPLCRKEIVSRIRQI (RSPRY1 RING domain (UniProt Q96DX4)) | 0 |
| B5 (PHF7 RING domain) | 0 |
| B6 (NSMCE1 RING domain) | 0 |
| B7 (RNF14 RING domain) | 0 |
| B8 (RNF149 RING domain) | 0 |
| KIKDLNEHIVCCLCAGYFVDATTITECLHTFCKSCIVKYLQTSKYCPMCNIKIHETQPLL (PCGF1 RING domain (UniProt Q9BSM1)) | 0 |

Sample 4 — target: CEBPE, bZIP domain (human); technique: DHFR protein complementation; matrix: yeast; reference: wild-type JUN-FOS pair; direction: higher = stronger binding
Setting: single substitutions, most at no-binding floor
Starting sequence: JUN, bZIP domain (human); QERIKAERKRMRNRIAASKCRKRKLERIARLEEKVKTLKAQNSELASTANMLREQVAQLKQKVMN; partner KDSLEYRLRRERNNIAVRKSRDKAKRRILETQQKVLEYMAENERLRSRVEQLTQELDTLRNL
| Change | binding fitness [natural log] |
| --- | --- |
| M51C | -1.31 |
| L52R | -1.46 |
| L45V | -1.49 |
| A49Y | -1.01 |
| E44S | -1.33 |
| L38Y | -1.32 |
| T48K | -0.958 |
| A29H | -1.21 |
| R53I | -1.18 |
| E33V | -1.38 |
| E54C | -1.24 |
| K36I | -1.35 |
| L52C | -1.53 |
| V56W | -1.46 |
| K34T | -1.19 |

Sample 5 — technique: protein binding microarray; form: double-stranded DNA, one strand shown; matrix: in vitro; tested at: not given; reference: not given; direction: higher = stronger binding
Target: Histone acetyltransferase KAT6A, winged helix 2, GST fusion (KAT6A, Homo sapiens, UniProt Q92794, residues 85-181)
Setting: 8-mer, flanks averaged, mean of 2 arrays, mostly near background
Construct (chain): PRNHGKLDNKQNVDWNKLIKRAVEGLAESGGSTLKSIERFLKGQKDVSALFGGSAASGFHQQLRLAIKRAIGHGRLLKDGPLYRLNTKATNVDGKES
| Strand | E-score |
| --- | --- |
| GGGTCTGA | -0.063 |
| ACTCACTC | 0.136 |
| AAGCTCGA | 0.0415 |
| TGGCGAAA | 0.133 |
| CTGTAAAG | -0.0557 |
| AAGCTCCA | 0.0887 |
| GATGCAGA | 0.0633 |
| GACCCGCA | 0.0478 |
| ATAATCCG | -0.0907 |
| ACCGGATA | -0.208 |
| AAGTTAAC | 0.0553 |
| GAGATCAC | -0.0589 |
| CAATAGCA | -0.174 |
| ATCTCCAG | 0.0501 |
| CAGGTCAC | -0.0466 |
| AATACGAA | 0.0515 |
| CTTAACGC | -0.144 |
| CTAAACAC | 0.00303 |
| CGCTTTAG | 0.17 |
| AAAACGGC | 0.0576 |
| AATTTCGT | -0.0537 |
| CTGCCTTA | -0.131 |
| CCTCTACA | -0.14 |
| GAAGAGTA | -0.0868 |
| TCTTGCCA | 0.012 |

Sample 6 — technique: RNA Bind-n-Seq; form: RNA; matrix: in vitro; tested at: 200 nM; setting: whole 134-nt RNA, ends assumed; with: 150 mM LiCl; reference: input library; direction: higher = stronger binding; all molecules: 7-deaza-guanosine replaces G
Target: Fragile X messenger ribonucleoprotein 1, C-terminal low-complexity region (Fmr1, Mus musculus, UniProt P35922)
Constant ends, left off below: GGGAGUUCUACAGUCCGACGAUC … UGGAAUUCUCGGGUGUCAAGG
| Strand | log2 enrichment |
| --- | --- |
| AAACUUUAGAGGAGGAUCUGAUGGAUAUGGCAGUGGACGUGGAUUUGGGGAUGGCUAUAAUGGGUAUGGAGGAGGACCUGGAGGUGGCAA | 0.2 |
| CCUGUGCUACACAUCGUAUGUACCGAAUCGGGGCCCCCCCGGGCCCCCCCGGCCCCCCCGGAAAGUAUUAUGUUACGCCGUUCGGAUCUG | 0.854 |
| UCAAGUCCUGUGCUACACAUCGUAUGUACCGAAUCGGUUUGGUGGUUUUUUUGGAAAGUAUUAUGUUACGCCGUUCGGAUCUGCACUUCC | -0.487 |
| AAGUCCUGUGCUACACAUCGUAUGUACCGAAUCGGGUUUUUGGGAAAAAGGGUGGGAAAGUAUUAUGUUACGCCGUUCGGAUCUGCACUU | -2.19 |
| UGGAAUAAGCCUGGUGCUUUCUGGCUAUGUUUGUCAUAGGCUGACCUGGAUAUCACCGAAAUAAACAAACUAACAGCAGAAGCUAUUCAG | -1.83 |
| CACAGACAACACGCACCCAUACAGACACAGAGGGAAGGGGUUGGGAUGGGGACAGGGUGCACAGCAGGGCGGGGUAGGACCCCAGCCCCU | 0.305 |
| UAACUUUAGAGGAGGAUCUGAUGGAUAUGCCAGUGGACGUGGAUUUGGGGAUGGCUAUAAUGGGUAUGGAGGAGGACCUGGAGGUGGCAA | -0.0158 |
| CUCAAGUCCUGUGCUACACAUCGUAUGUACCGAAUCGUGUGUGUGUGUGUGUGUAAAGUAUUAUGUUACGCCGUUCGGAUCUGCACUUCC | -0.495 |
| CAAGUCCUGUGCUACACAUCGUAUGUACCGAAUCAAAUUUAAACCCAAAUUUAAAAAAGUAUUAUGUUACGCCGUUCGGAUCUGCACUUC | -1.16 |
| GGGUGGACACUGACGAGCUGGACAGCAACGUGGACGACUGGGAAGAGGAGACCAUUGAGUUCUUCGUCACUGAAGAAAUCAUUCCCCUCG | -3 |
| UAACUUUAGAGGAGGAUCUGAUGGAUAUGGCAGUGGACGUGGAUUUGGGGAUGGCUAUAAUGGGUAUGGAUGAGGACCUGGAGGUGGCAA | 0.188 |

Repeated from above (sample 4):
| Change | binding fitness [natural log] |
| --- | --- |
| V56W | -1.46 |
| L52C | -1.53 |
| T48K | -0.958 |
| R53I | -1.18 |
| E54C | -1.24 |
| L45V | -1.49 |
| A49Y | -1.01 |
| M51C | -1.31 |
| L38Y | -1.32 |
| E33V | -1.38 |
| K34T | -1.19 |
| A29H | -1.21 |
| E44S | -1.33 |
| L52R | -1.46 |
| K36I | -1.35 |
